Experimental data from different studies.
Lines come from different studies, so protocols differ. Numbers after ± are the reported error.

Compound	target or system	test	system	conditions	scale	endpoint	value
CC[n+]1cccc2cc(/C=N/NC(=O)c3ccc4ccc5ccc(C(=O)N/N=C/c6ccc7c(ccc[n+]7CC)c6)nc5c4n3)ccc21	22CTA telomeric G4-DNA antiparallel	FRET melting		1 µM, K10 buffer, DNA 0.2 µM		ΔTm	26.9 ± 1 °C
C=CC(=O)Nc1cccc(Cn2ncc3cnc(Nc4cnn(CCOC)c4)nc32)c1	CDKL1 human	binding, KINOMEscan		100 nM	lower = stronger binding	percent of control	85%
O=C(c1ccc(C2CCCCC2)cc1)N1CCC(F)CC1		hepatocyte stability	cryopreserved human hepatocytes	1 µM		hepatic clearance	17 mL/min/kg
Nc1ncc(-c2cc(-c3cnn(CC(F)(F)F)c3)ncc2F)nc1C(=O)NC1CNCC(F)C1 (centres unmarked)	TRKB	KINOMEscan competition binding		1 µM	relative to: DMSO control	remaining binding	34%
O=C(NCCOc1ccc(F)cc1)c1ccc([C@H]2[C@@H](F)[C@@H](F)C[C@@H](F)[C@H]2F)cc1		hepatocyte stability	cryopreserved rat hepatocytes	1 µM		hepatic clearance	34 mL/min/kg
C=CC(=O)N1[C@H](c2ccc3c(c2)OCO3)c2[nH]c3ccccc3c2C[C@@H]1C(=O)N1CCN(C)CC1	human cyclin E1 N112C-3xFLAG:CDK2	co-IP with TMT proteomics, measured: KPNA2		concentration not given, P52292	relative to: wild type DMSO	relative co-enrichment	114%
Cc1ncsc1-c1ccc(C(C)NC(=O)C2CC(O)CN2C(=O)C(NC(=O)CCCCCCCCCCN2CCCC(Nc3ncc(Cl)c(Nc4ccccc4S(=O)(=O)C(C)C)n3)C2)C(C)(C)C)cc1 (centres unmarked)	22Rv1	RNA-seq, measured: PLCD4 mRNA		concentration not given	relative to: DMSO	log2 fold change	-1.83
O=C(N/N=C/c1ccc(C[n+]2ccccc2)cc1)c1cncc(C(=O)N/N=C/c2ccc(C[n+]3ccccc3)cc2)n1	22CTA telomeric G4-DNA antiparallel	FRET melting		1 µM, K10 buffer, DNA 0.2 µM		ΔTm	12.6 ± 0.3 °C
CN1CCCNC(=O)c2cccc(c2)C(=O)NCCCN(C)CCCNc2cccc3c2C(=O)c2cccc(c2C3=O)NCCC1	SAS	RNA-Seq, measured: ATRAID mRNA		1 µM, 6 h	relative to: untreated cells	log2 fold change	0.373
C[n+]1cccc2cc(/C=N/NC(=O)c3cccc(C(=O)N/N=C/c4ccc5c(ccc[n+]5C)c4)c3)ccc21	22CTA telomeric G4-DNA antiparallel	FRET melting		1 µM, K10 buffer, DNA 0.2 µM		ΔTm	5.4 ± 0.3 °C
COC1CN([C@H]2CC[C@H]([C@@]3(C)Oc4c(Cl)cc(C(=O)NCc5c(SC)cc(C)[nH]c5=O)c(C)c4O3)CC2)C1		RNA-seq, measured: ZMYND15 mouse homolog	mouse, HT-1376 xenograft, whole blood	dose not given	relative to: vehicle	log2 fold change	1.93
CNS(=O)(=O)Nc1nccc(Cc2c(C)c3ccc(Oc4ncccc4F)cc3oc2=O)c1F	HCC15	cell viability		7 days		IC50	> 1 µM
CCN(CC)CC(=O)Nc1cccc(-n2cc(-c3ccc4ccc(-c5cn(-c6cccc(NC(=O)CN(CC)CC)c6)nn5)cc4c3)nn2)c1	RCC4	PCR angiogenesis array, measured: ERBB2		5 x IC50, 4 h, normoxia	relative to: untreated	fold regulation	-1.26
O=C(N/N=C/c1cc[n+](Cc2ccccc2)c2ccccc12)c1cccc(C(=O)N/N=C/c2cc[n+](Cc3ccccc3)c3ccccc23)c1	22CTA telomeric G4-DNA antiparallel	FRET melting		1 µM, K10 buffer, DNA 0.2 µM, together with: ds26 10 µM		ΔTm	10.5 ± 0.2 °C

Some of these lines once more:
Compound	target or system	test	system	conditions	scale	endpoint	value
O=C(N/N=C/c1ccc(C[n+]2ccccc2)cc1)c1cncc(C(=O)N/N=C/c2ccc(C[n+]3ccccc3)cc2)n1	22CTA telomeric G4-DNA antiparallel	FRET melting		1 µM, K10 buffer, DNA 0.2 µM		ΔTm	12.6 ± 0.3 °C
